Assay results pooled from the literature.
Numbered parts are unrelated; each lists some results of a single study.

Block 1
Target: RNA binding protein fox-1 homolog 2, RRM domain, GST-SBP tag (RBFOX2, Homo sapiens, UniProt O43251-10, residues 100-194)
Method: RNA Bind-n-Seq
Molecule type: RNA
Matrix: in vitro
Tested at: 365 nM
Setting: natural RNA segment, single round, ends assumed
Relative to: no-protein control
Reading: higher = stronger binding
All sequences stand within: GGGAGUUCUACAGUCCGACGAUC … UGGAAUUCUCGGGUGCCAA
Target sequence (chain): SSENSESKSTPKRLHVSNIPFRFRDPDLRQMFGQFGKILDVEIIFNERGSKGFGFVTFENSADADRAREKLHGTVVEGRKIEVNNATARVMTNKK
Strand	RBNS enrichment (R)
AUUGUUUCAUAGCAAGAAUUCGUUGCAAAAAUGCUUUAUUUUUGAACAAUGCUUGGAAAUAUUAUGUGACUUUUUUGUUUGUUUGUUUUAGGAGGAUGGUGUAUGGUGGG	1.78
UUUCAGCUCUAACUGGAUCCUCCCGCCCCAUGGGAUAUGGGGUGGCUGCCCUGAGUGCCCACGCGAGGGCGGCCGCAAGUUGACUAAACGGGGACACACACGGCUGAACC	0.248
UAACAGGAACUCGGAAGGUAGAACUUAGAAUUCAGAACUUGGGUUUCAAUUGUAGAAUUUGGAAUCUGGAAUACAGAAUUGGGAAGAAGAACAGAGAUGACAAAAGACCA	0.653
CUGGCACCUGGUUUCUGUUCUGUUGAUCCCACUUCACUGUGAGGGGAAGGCCUUUUCACGGGAACUCUCCAAAUAUUAUUCAAGUGCCUCUUGUUGCAGAGAUUUCCUCC	0.485
AAUAUCAUAUAUCAUCAGUUAGCAAUAUUAGCAUUUCAAUCAGUGAUUUGAAUGUUGAUACUUUUUUUUCCUUUACAUUUCCAGUAAGUUUCUUACAGAAAGUACCUGUG	0.637
UGUAUGGAUACUGGGUUGGGCCUUGGGUUUUACUCACUUUCAGUAUAGCUUGCCAGUAUUGUUAAGGUAUCCAAAGCCUUUCUAGAUAGAGACAGGAACAUUGACUUGAA	0.442
UGAUGUUUAGGAAUGUUUGUCUCAGCCACAGUUCCUUCAUAGCUUUUCCAAAAUGAAUUGGGAAAAAAAAAUCGUAUAGCAGUCUUAAAGCUUAGUAAUGGAACUUGGCU	0.506
AAAGUCUUGGUUUGUCUUGCUGCUGUAAAAGGCCUUUCCAAACCCCUCCUUUUAUUCCUGUUUCCCGAAAUAAGGUAUUUGUAGAGUUAAGGACCUACUGCAUGCCUGUC	5.52
AGAACUGGCCACCCAUCUGUCAGGCUCUUCCUUGGAAACGAAGAGCAGAGGUGGUCUCUAGGGGGAGGCUGGUGCCAUUCCCUCCUGCCUGGCUCAGACCUCUUAGACUG	0.326
AACUCAAGUAGAACAAAUCCCUUCUUGGUCUUCUGGGACCACUAGAGGUCACCGUGUCCAGUCCUUUGCCUCACCCCCACUGCCCCAGUCUGUAUGCACUGAAAAACGUC	0.875
CUCAGCCUCCUGCUGCCCUGCCUUGAGCUGCCAGAGGAGGCCUUGGCGUUGCUAGGAUUGCGUCAGUUUUCCUGUUUGCACUAUUUCUUUUUGUAACAGUGACCCUGUCU	0.25
UUUUUUGCUUAAUCAAACUCCAUUCCCAAAUGCACUCCAUCUCUGGCUCUGAGGGCGCUCCCUCCUCUCAGCCGGGCAGCCUGGCCUCUCCUGCCCAGACCUGCGGUCCC	0.996

Block 2
Target: RING finger protein unkempt homolog, zinc fingers 1-6, SBP tag (UNK, Homo sapiens, UniProt Q9C0B0, residues 30-357)
Sequence of UniProt Q9C0B0 (30-357, looked up): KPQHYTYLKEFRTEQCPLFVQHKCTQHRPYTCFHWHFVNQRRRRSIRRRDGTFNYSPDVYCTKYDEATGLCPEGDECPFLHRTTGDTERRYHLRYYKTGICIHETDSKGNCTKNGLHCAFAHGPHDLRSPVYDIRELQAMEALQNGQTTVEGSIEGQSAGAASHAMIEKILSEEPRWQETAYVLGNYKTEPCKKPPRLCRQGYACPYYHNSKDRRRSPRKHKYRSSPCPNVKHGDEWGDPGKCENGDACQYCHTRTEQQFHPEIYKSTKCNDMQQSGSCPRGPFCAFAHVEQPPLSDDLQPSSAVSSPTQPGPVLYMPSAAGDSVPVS
Method: RNA Bind-n-Seq
Molecule type: RNA
Matrix: in vitro
Tested at: 100 nM
Setting: RNA with constant flanks, vertebrate orthologous sites, ends assumed
Relative to: input RNA pool
Reading: higher = stronger binding
All sequences stand within: GGGAGUUCUACAGUCCGACGAUC … CAACAGAGGAUUGAGCAUCA
Strand	bound/input enrichment
AGAAACCCAAGGAUUCAGGACUGGUUCUAUAAAUAUGCCAAGUAGAUAUGGAACGAACAAUAGAGCCGGACAGCCAAGACCUUAAUGAACUUCACUUUACUUUAUUUUUAUGAGAACUUU	0.848 ratio
AAGAUGGUGGUUGUACAUUAUUUCAUUCAGAAAAUAUGAGAACUCAUUUUGUUUUGAAGCUAGGUGUUAAACUGGAAUAGCUAUUACGUUCUUGAAAAUGGGGCAGUUGUGCCCUAACCU	0.594 ratio
ACUGUUGUUAAGCACUGUGUUCCAGACUGUGUCUGACUUAGUGUAACCUAGGAGAUUUUAUAGUUUUAUUUUAAUGAAAUCCUGAUUGACGCAGAGCAGUGGGGAGAACGGUCCCUUUUA	1.81 ratio
CUCCCCGUUAUCCCGAAAGUAGAAUUUUUUAAAAUUGUGUUGCCACCACUUGUAAAAAUUUCACAAUAUUAGAAUGACACUAAUGAAGUAAGAAAUUUUUGUUCAUUAUUUUACAAACCA	0.623 ratio
CACUAAUCAAUUUAAUUGUAUUCUGAAUAAAGUGUAACAUUGUGUAGCUUUUGUAUAAAACCAGGAAUUGGAAAUGGUCCAAAUACAUUCUUUUAAAUGCUUACAUAAGCAGAGAAACUG	0.539 ratio
UUUGUUUUUGUUGGAUUUUUUGGUUUUUGGUUUGGUUUUUUUUGUUUUUUUGUUUUUGGUAGUUUGUUGUUACCCACGCCAUUUUACGUCUCCUUCACUGAAGGGCUAGAGUUUUAACUU	1.22 ratio
UCCCAGCACUCUGAUAAAAAGUGUGGACUGGCUGCUCGUCUUUUCCUUAUUCUUUCUAAUUAGCUUUAUUAUGUACGCCACCAUUCGAACUGAGAGCAUCCGGUGGCUAAUUCCAGGACA	3.57 ratio
ACUGAUUGAUUCUCAGUCUCUUCUGCCCUGUCCUGAUUUUAAAAGCCCUUUCUUUUCUUUUAGGCAUAUGUAGUAAUAGCAGAAAGAUUUAAUUUGGGCAACUUUGAUUCUUAAAAAAAC	0.331 ratio
UCAUUGUACUGCAAAAAUCAUCUUCGUUUUAAUUUAGCCACAGUGAUAACUAGUCUGCACUAGUAGAAUCAUUUACCUUUUAAAUUAUCUGCUUUGUCUGAUACCUGAAACACAUCAAAA	0.385 ratio
GAAGAUGGUGGUUGUACAUUAUUUCAUUAGAAAAUAUAAAAAUUCAUUUUGUUUUGAAGCUAGGUAUUAAACUGGAAUAGCUAUUACACCCCUGAGAAUGGGGCAGUUGUGCCCUUCCCU	1.46 ratio
AAAUUUAUUUCAUGCCCUGGACUCCCUAUCGUACUGAUACUUUAACAGAAUAUGCUUCCUUAGAAGAUUUCCAAAAUAGUCGCCAAACGACGACAUACAAACUUCCAAAUCGAGUAGAUG	0.752 ratio

Block 3
Target: Histone acetyltransferase KAT6A, winged helix 1, GST fusion (KAT6A, Homo sapiens, UniProt Q92794, residues 1-85)
Method: protein binding microarray
Molecule type: double-stranded DNA, one strand shown
Matrix: in vitro
Tested at: not given
Setting: 8-mer, flanks averaged, mean of 2 arrays, mostly near background
Relative to: not given
Reading: higher = stronger binding
Construct (chain): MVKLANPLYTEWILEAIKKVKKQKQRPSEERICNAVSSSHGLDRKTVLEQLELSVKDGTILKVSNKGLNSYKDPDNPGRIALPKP
Strand	E-score
CCCTAGCC	-0.0576
GGATTGTA	-0.0138
AGTTGGCA	-0.237
AGTTGTTG	-0.158
ATCGCCCA	-0.125
GCTATGAC	0.0564
CCGTGTTC	0.22
AGTGAGCG	-0.0317
TGAAAGAA	-0.181
ATTGTTGA	-0.232
AATGCTTA	-0.0884
AACACGGC	0.346
CCGGGACG	0.322
AAAGGCCG	0.353
ATGAAACG	0.0687
CTGAACGC	0.132
TAGTTCAA	-0.174
ACTTTCCT	-0.0694
CGACGACA	-0.134
GTTTTTGA	-0.192
GCCCAAGA	-0.135
CCGCTGAG	0.18
AATTTCCT	-0.215
AGAAGCAG	-0.226
CTACGTAA	0.163

Block 4
Target: Fragile X messenger ribonucleoprotein 1, C-terminal low-complexity region (Fmr1, Mus musculus, UniProt P35922)
Method: RNA Bind-n-Seq
Molecule type: RNA
Matrix: in vitro
Tested at: 200 nM
Setting: whole 134-nt RNA, ends assumed
Added: 150 mM LiCl
Relative to: input library
Reading: higher = stronger binding
Library: 7-deaza-guanosine replaces G
All sequences stand within: GGGAGUUCUACAGUCCGACGAUC … UGGAAUUCUCGGGUGUCAAGG
Strand	log2 enrichment
CAAGUCCUGUGCUACACAUCGUAUGUACCGAAUCGGAAAGGAAAGGUUUUUUUGGAAAGUAUUAUGUUACGCCGUUCGGAUCUGCACUUC	-1.4
UUCAUUCCCAAGGGAGGCCAUGUCUGGAGAUAGACCUUGAAUUUAAUAAAUUUUAGGCACUAUACCAUUUCAGUGGAGAAAAUUGUUGGG	-2.66
CAUCCUUUGGGCCCCUCAAGGCCUUCAACCUGGUCAAGGACAGUGCCACGGGGCUCUCCAAGGGCUACGCCUUCUGUGAGUACGUGGACA	-0.518
CCUGUGCUACACAUCGUAUGUACCGAAUCGGGGUUUUUUUGGGGAAAAAAAGGGGAGGGGAAAGUAUUAUGUUACGCCGUUCGGAUCUGC	-1.63
CACAGACAACACGCACCCACACAGACACAGAGGGAAGGGGUUGGGAUGGGGACAGGGUGCACAGCAAGGCGGGGUAGGACCCCAGCCCCU	0.347
CUCAAGUCCUGUGCUACACAUCGUAUGUACCGAAUCGGAAAGGAGGUUUUUGGAAAGUAUUAUGUUACGCCGUUCGGAUCUGCACUUCCA	-0.585
CCUCAAGUCCUGUGCUACACAUCGUAUGUACCGAAUCGGUGGGGUGGUGGGGAAAGUAUUAUGUUACGCCGUUCGGAUCUGCACUUCCAG	-0.23
CACAGACAACACGCACCCACACAGACACAGAGGGAAGGGGUUGGGAUGGGGACAGGUUGCACAGCAGGGCGGGGUAGGACCCCAGCCCCU	-0.0655
ACCAUGCAGGUGGGCAUCUUUGGGAAGUGGGGCAAGUGGGGGAUAGGGAGGGGGGUAACACUUUGGGAACAGGUGGUCCCAGGUCGUUUC	1.4
UCCUGUGCUACACAUCGUAUGUACCGAAUCGGGGUUUGGGGUUUUUUUGGGGUUUGGGGAAAGUAUUAUGUUACGCCGUUCGGAUCUGCA	-0.235
UAACUUUAGAGGAGGAUCUGAUGGAUAUGGCAGUAGACGUGGAUUUGGGGAUGGCUAUAAUGGGUAUGGAGGAGGACCUGGAGGUGGCAA	0.712
